Measurements of several laboratories.
Lines come from different studies, so protocols differ. ± marks the error that the study gave. In brackets after ≈: the same amount, converted by molar mass. Bridge positions count the residues as written; N and C are the ends. Ends that are not written are not given here. * marks the point of attachment.
Organism: Escherichia coli

CN(C)[C@@H]1C(O)=C(C(N)=O)C(=O)[C@@]2(O)C(O)=C3C(=O)c4c(O)cccc4[C@@](C)(O)[C@H]3C[C@@H]12 — MIC fold increase (wild type; evolution over 160 generations; baseline: ancestor strain): 40 fold
CC(C)C[C@H](NC(=O)[C@H](C)NC(=O)[C@H](CC(C)C)NC(=O)[C@H](CCCCN)NC(=O)[C@H](CCCCN)NC(=O)[C@H](Cc1c[nH]c2ccccc12)NC(=O)[C@H](CC(C)C)NC(=O)[C@H](CC(C)C)NC(=O)[C@H](C)NC(=O)[C@H](CC(C)C)NC(=O)[C@H](CCCCN)NC(=O)[C@H](CCCCN)NC(=O)[C@H](CC(C)C)NC(=O)[C@H](C)NC(=O)[C@H](CC(C)C)NC(=O)[C@H](C)NC(=O)[C@H](CC(C)C)NC(=O)[C@H](CCCCN)NC(=O)[C@@H](N)CCCCN)C(=O)N[C@@H](C)C(=O)N[C@@H](CC(C)C)C(=O)N[C@@H](CCCCN)C(=O)N[C@@H](CCCCN)C(=O)N[C@@H](C)C(N)=O — MIC50 (broth microdilution; NCTC 9001; overnight, 37 °C): 2.95 ± 0.06 µM
Clc1ccc(C[n+]2cc(-c3ccc4ccccc4n3)cc3ccccc32)cc1 — IC50 (lacZ reporter expression; VirF-independent lacZ control; 3 h, 37 °C, 6.2% DMSO, added: 1 mM IPTG): > 100 µM
CC(C)C[C@H](NC(=O)[C@H](C)NC(=O)CNC(=O)[C@@H](NC(=O)[C@H](CC(C)C)NC(=O)[C@H](CCCCN)NC(=O)[C@H](CCCCN)NC(=O)[C@H](CC(C)C)NC(=O)[C@H](CC(C)C)NC(=O)[C@H](CCCCN)NC(=O)[C@H](CC(C)C)NC(=O)[C@H](CC(C)C)NC(=O)[C@@H](N)CCCCN)C(C)C)C(=O)NCC(N)=O — MIC (ATCC 25922, CAMHB; 18 h, 37 °C): 3 µM
CC(C)C[C@H](NC(=O)[C@H](C)NC(=O)[C@H](CCCCN)NC(=O)[C@H](Cc1c[nH]c2ccccc12)NC(=O)[C@H](CC(C)C)NC(=O)[C@H](CC(C)C)NC(=O)[C@H](C)NC(=O)[C@@H]1CCCN1C(=O)[C@H](CCCCN)NC(=O)[C@H](C)NC(=O)[C@H](CC(C)C)NC(=O)[C@H](C)NC(=O)[C@H](CC(C)C)NC(=O)[C@H](CCCCN)NC(=O)[C@H](CC(C)C)NC(=O)[C@H](CCCCN)NC(=O)[C@@H](N)CCCCN)C(=O)N[C@@H](C)C(=O)N[C@@H](CC(C)C)C(=O)N[C@@H](CCCCN)C(=O)N[C@@H](CC(C)C)C(=O)N[C@@H](CCCCN)C(=O)N[C@@H](CCCCN)C(=O)N[C@@H](C)C(N)=O — MIC50 (broth microdilution; NCTC 9001; overnight, 37 °C): 2.22 ± 0.63 µM
Myristoyl-FCPRRYKQIGTGLPGTKCK (disulfide 2-18 (inferred)) (N-myristoyl, disulfide; Myristoyl = CCCCCCCCCCCCCC(=O)*) — inhibition (antibacterial activity; K-12 MG1655; MBC, 2 h, pH 7.4, 37 °C, added: LPS, peptide:LPS 1:5 w/w): 25%
CC[C@H](C)[C@H](N)C(=O)N[C@@H](CC(C)C)C(=O)N1CCC[C@H]1C(=O)N[C@@H](Cc1c[nH]c2ccccc12)C(=O)N[C@@H](CCCCN)C(=O)N[C@@H](Cc1c[nH]c2ccccc12)C(=O)N1CCC[C@H]1C(=O)N[C@@H](Cc1c[nH]c2ccccc12)C(=O)N[C@@H](Cc1c[nH]c2ccccc12)C(=O)N1CCC[C@H]1C(=O)N[C@@H](Cc1c[nH]c2ccccc12)C(=O)N[C@@H](CCCNC(=N)N)C(=O)N[C@@H](CCCNC(=N)N)C(N)=O — MIC50 (broth microdilution; 18 h, 30 clinical isolates): 2 µg/mL
CC(C)C[C@H](NC(=O)[C@H](Cc1c[nH]c2ccccc12)NC(=O)[C@H](CCCNC(=N)N)NC(=O)[C@H](CC(C)C)NC(=O)[C@H](CCCNC(=N)N)NC(=O)[C@H](Cc1c[nH]c2ccccc12)NC(=O)[C@H](Cc1c[nH]c2ccccc12)NC(=O)[C@H](CC(C)C)NC(=O)[C@H](CCCCN)NC(=O)[C@H](Cc1c[nH]c2ccccc12)NC(=O)[C@@H](NC(=O)[C@@H](N)CC(C)C)C(C)C)C(=O)N[C@@H](CCCCN)C(N)=O — MIC (ATCC 25922; 1 h, 37 °C, dividing cells in LB): ≥ 100 µg/mL
O=C(Sc1cccccc1=O)c1ccccc1 — MIC80: ≤ 30 µM
CC(C)C[C@H](NC(=O)[C@H](C)NC(=O)[C@H](CCCCN)NC(=O)[C@H](Cc1c[nH]c2ccccc12)NC(=O)[C@H](CC(C)C)NC(=O)[C@H](CC(C)C)NC(=O)[C@H](C)NC(=O)[C@H](CC(C)C)NC(=O)[C@H](CCCCN)NC(=O)[C@H](C)NC(=O)[C@@H]1CCCN1C(=O)[C@H](C)NC(=O)[C@H](CC(C)C)NC(=O)[C@H](CCCCN)NC(=O)[C@H](CC(C)C)NC(=O)[C@H](CCCCN)NC(=O)[C@@H](N)CCCCN)C(=O)N[C@@H](C)C(=O)N[C@@H](CC(C)C)C(=O)N[C@@H](CCCCN)C(=O)N[C@@H](CC(C)C)C(=O)N[C@@H](CCCCN)C(=O)N[C@@H](CCCCN)C(=O)N[C@@H](C)C(N)=O — MIC50 (broth microdilution; NCTC 9001; overnight, 37 °C): 0.79 ± 0.41 µM
CC(C)C[C@H](NC(=O)[C@H](CCCCN)NC(=O)[C@H](CCCCN)NC(=O)[C@H](CC(C)C)NC(=O)[C@H](CCCCN)NC(=O)[C@@H](N)CCCNC(=N)N)C(=O)N[C@@H](Cc1c[nH]c2ccccc12)C(=O)N[C@@H](CCCNC(=N)N)C(=O)N[C@@H](CCCCN)C(=O)N[C@@H](Cc1ccccc1)C(=O)N[C@@H](CCCNC(=N)N)C(=O)O — EC50 (bacterial killing, colony count; BL21; 1 h, pH 7, 37 °C): 2.9 µg/mL (≈ 1.86 µM)
CC(C)C[C@H](NC(=O)[C@H](C)NC(=O)[C@H](CCCCN)NC(=O)[C@H](C)NC(=O)[C@H](CC(C)C)NC(=O)[C@H](CCCCN)NC(=O)[C@H](CC(C)C)NC(=O)[C@H](Cc1c[nH]c2ccccc12)NC(=O)[C@H](CC(C)C)NC(=O)[C@H](CC(C)C)NC(=O)[C@H](C)NC(=O)[C@H](CC(C)C)NC(=O)[C@H](CC(C)C)NC(=O)[C@H](CCCCN)NC(=O)[C@@H]1CCCN1C(=O)[C@H](C)NC(=O)[C@H](CCCCN)NC(=O)[C@H](C)NC(=O)[C@H](CC(C)C)NC(=O)[C@H](CCCCN)NC(=O)[C@@H](N)CCCCN)C(=O)N[C@@H](CCCCN)C(=O)N[C@@H](CCCCN)C(=O)N[C@@H](C)C(N)=O — MIC50 (broth microdilution; TOP10; overnight, 37 °C): 1.26 ± 0.49 µM
CC[C@H](C)[C@H](NC(=O)CN)C(=O)NCC(=O)N[C@@H](CCCCN)C(=O)N[C@@H](Cc1ccccc1)C(=O)N[C@@H](CC(C)C)C(=O)N[C@@H](CCCCN)C(=O)N[C@@H](CCCCN)C(=O)N[C@@H](C)C(=O)N[C@@H](CCCCN)C(=O)N[C@@H](CCCCN)C(=O)N[C@@H](Cc1ccccc1)C(=O)NCC(=O)N[C@@H](CCCCN)C(=O)N[C@@H](C)C(=O)N[C@@H](Cc1ccccc1)C(=O)N[C@H](C(=O)N[C@@H](CCCCN)C(=O)N[C@H](C(=O)N[C@@H](CC(C)C)C(=O)N[C@@H](CCCCN)C(=O)N[C@@H](CCCCN)C(N)=O)[C@@H](C)CC)C(C)C — MIC (K12): 6.3 µg/mL

Repeated from above:
Myristoyl-FCPRRYKQIGTGLPGTKCK (disulfide 2-18 (inferred)) (N-myristoyl, disulfide; Myristoyl = CCCCCCCCCCCCCC(=O)*) — inhibition (antibacterial activity; K-12 MG1655; MBC, 2 h, pH 7.4, 37 °C, added: LPS, peptide:LPS 1:5 w/w): 25%
